Results pooled from the literature.
Numbered parts are unrelated; each lists some results of a single study.

Study 1 — technique: protein binding microarray; molecule type: double-stranded DNA, one strand shown; matrix: in vitro; tested at: not given; baseline: not given; reading: higher = stronger binding
Target: Histone acetyltransferase KAT6A, winged helix 2, GST fusion (KAT6A, Homo sapiens, UniProt Q92794, residues 85-181)
Notes: 8-mer, flanks averaged, mean of 2 arrays, mostly near background
Residues (chain): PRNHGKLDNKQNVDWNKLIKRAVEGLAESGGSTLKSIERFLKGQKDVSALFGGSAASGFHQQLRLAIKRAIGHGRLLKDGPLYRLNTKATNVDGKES
`CGGATCAA` has an E-score of 0.157.
The E-score of `ATCGTACG` is reported as -0.196.
`CCCGATCA` has an E-score of 0.00304.
The E-score of `CAGCAAGG` is reported as -0.000815.
`AGACCTGC` gave an E-score of -0.117.
`GTAGGCAC` gave an E-score of -0.0514.

Study 2 — technique: universal PBM; molecule type: double-stranded DNA, one strand shown; matrix: in vitro; tested at: 600 nM; reading: higher = stronger binding
Target: Sal-like protein 4, full length isoform A (SALL4, Homo sapiens, UniProt Q9UJQ4, residues 1-1053)
Sequence of UniProt Q9UJQ4 (whole entry, looked up): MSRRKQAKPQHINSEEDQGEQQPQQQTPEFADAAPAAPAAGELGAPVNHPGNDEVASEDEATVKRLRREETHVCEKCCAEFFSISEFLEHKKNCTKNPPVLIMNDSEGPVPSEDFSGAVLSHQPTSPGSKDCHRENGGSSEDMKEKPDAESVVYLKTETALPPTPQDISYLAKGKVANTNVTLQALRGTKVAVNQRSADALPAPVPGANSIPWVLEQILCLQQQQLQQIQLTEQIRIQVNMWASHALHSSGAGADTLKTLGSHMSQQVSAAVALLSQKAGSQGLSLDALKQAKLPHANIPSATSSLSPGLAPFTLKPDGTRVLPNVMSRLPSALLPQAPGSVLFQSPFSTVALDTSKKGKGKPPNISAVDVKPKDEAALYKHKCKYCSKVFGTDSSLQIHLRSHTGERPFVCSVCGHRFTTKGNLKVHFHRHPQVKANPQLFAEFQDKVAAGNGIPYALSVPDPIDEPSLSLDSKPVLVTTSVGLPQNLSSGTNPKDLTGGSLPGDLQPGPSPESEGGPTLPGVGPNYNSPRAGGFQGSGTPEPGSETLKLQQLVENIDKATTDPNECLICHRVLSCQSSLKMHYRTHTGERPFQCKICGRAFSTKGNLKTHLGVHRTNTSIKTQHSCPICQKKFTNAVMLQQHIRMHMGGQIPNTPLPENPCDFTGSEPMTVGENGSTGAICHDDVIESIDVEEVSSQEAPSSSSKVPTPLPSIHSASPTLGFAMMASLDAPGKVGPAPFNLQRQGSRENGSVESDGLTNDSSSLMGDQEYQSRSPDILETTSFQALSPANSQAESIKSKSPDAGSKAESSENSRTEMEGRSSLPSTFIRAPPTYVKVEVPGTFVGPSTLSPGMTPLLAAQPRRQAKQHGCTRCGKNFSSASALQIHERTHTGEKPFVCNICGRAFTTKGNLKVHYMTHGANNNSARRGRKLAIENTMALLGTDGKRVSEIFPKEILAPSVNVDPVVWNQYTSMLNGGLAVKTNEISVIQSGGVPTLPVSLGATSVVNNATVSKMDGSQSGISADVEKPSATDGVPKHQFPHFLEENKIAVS
Notes: 8-mer, flanks averaged, mean of replicates
`GTACCAAC` gave an E-score of -0.113.
For `CCTTTTAC`, the E-score was 0.116.
The E-score of `CGTTGAAG` is reported as -0.0501.
`GACTACAA` has an E-score of 0.0852.
For `GCACGAAA`, the E-score was -0.0368.
With `CCATATCA` the E-score was 0.206.
`CGCCTGAC` has an E-score of -0.183.

Study 3 — technique: aptamer microarray, sandwich; molecule type: DNA with 2'F-ANA; matrix: in vitro; tested at: 200 nM; together with: Cy3 exosite-II aptamer, 400 nM; reading: higher = stronger binding; strand: GGTTGGTGTGGTTGG
Target: Prothrombin, mature alpha-thrombin (F2, Homo sapiens, UniProt P00734)
Notes: whole 15-mer aptamer, many near background
`2'F-ANA at 3 4 6 9 10 12` — result for “mean fluorescence intensity”: 344 a.u.
Under “mean fluorescence intensity”, `2'F-ANA at 1 2 6 7 8 13 14` is recorded as 368 a.u.
`2'F-ANA at 4 5 6 8 9 14 15`: “mean fluorescence intensity” 49.6 a.u.
Under “mean fluorescence intensity”, `2'F-ANA at 1 2 3 5 8 10 13 14` is recorded as 44 a.u.
`2'F-ANA at 1 5 6 8 9 12 13 15` — result for “mean fluorescence intensity”: 79.8 a.u.
Under “mean fluorescence intensity”, `2'F-ANA at 2 6 7 8 9 10 15` is recorded as 174 a.u.

Mixed results
For `PhoQ, residues 284 288 289 292 302 303 SCCLKL`, the fold induction was 3.81 (PhoP, residues 12 14 15 18 19 VHSCL (Escherichia coli, UniProt P23836); Sort-seq, measured: YFP reporter; E. coli; PhoQ-PhoP variant library, together with: 10 µM Mg2+; baseline: high Mg2+ state, higher = stronger signaling).
